{"data": "Published values of several laboratories", "note": "A part holds a random share of what one study measured."}
{"data": "Sample 1", "target": "RING finger protein unkempt homolog, zinc fingers 1-6, GST-SBP tag (UNK, Homo sapiens, UniProt Q9C0B0, residues 30-357)", "method": "RNA Bind-n-Seq", "form": "RNA", "medium": "in vitro", "concentration": "not given", "setting": "RNA with constant flanks, human and mouse sites, ends assumed", "baseline": "input RNA pool", "reading": "higher = stronger binding", "shared flanks, not repeated": "GGGAGUUCUACAGUCCGACGAUC … CAACAGAGGAUUGAGCAUCA", "UniProt Q9C0B0, sequence (30-357, looked up)": "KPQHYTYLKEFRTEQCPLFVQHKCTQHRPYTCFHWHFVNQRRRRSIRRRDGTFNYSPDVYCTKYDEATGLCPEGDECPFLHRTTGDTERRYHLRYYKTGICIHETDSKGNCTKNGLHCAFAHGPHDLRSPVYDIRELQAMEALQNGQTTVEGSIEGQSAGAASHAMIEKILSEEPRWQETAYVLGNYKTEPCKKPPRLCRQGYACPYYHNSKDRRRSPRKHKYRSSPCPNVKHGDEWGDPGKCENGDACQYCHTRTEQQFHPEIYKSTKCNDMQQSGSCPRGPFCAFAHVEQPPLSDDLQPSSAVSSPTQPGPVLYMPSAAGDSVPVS"}
{"Strand": "AUUGUGAAAAAGCUGCCUAUUGUUGAAACUCUGGGCUGCUGUAAUGUGAUUUGUUCAGAUAAAACUGGAACACUGACGAAGAAUGAAAUGACUGUUACUCACAUAUUUACUUCAGAUGGU", "bound/input enrichment [ratio]": 0.116}
{"Strand": "GCGAGAUCCGCUGCUGCUGAGGAGAGGAGCGUCAACAGCAGCACCAUGGUACAACAGAAGAACCUUGAAGGCUAUGUGGGAUUUGCCAAUCUCCCAAAUCAAGUAUACAGAAAAUCGGUG", "bound/input enrichment [ratio]": 0.196}
{"Strand": "CUGUAUUUAUAAAUGUAUAAUGUAUUUAGCUACUUUUUGGUUUAAAUGAACUUGUUGGGUUAGCUUGGUAAAUGUUAUAAUUUUUACUAUUUUCUACAAAGAAAAUAUUUUCUAAUUUAA", "bound/input enrichment [ratio]": 4.91}
{"Strand": "AAAUCAGAGGAACAUUGUGAAUUUGUAAAAUGACUUCUGUUUUCUCAAAGGCCAUGCCAUUGUAAAUUGUUAGUGUUCGCCAAAGGACAGCCAAGCUUUCUUUUAAAAAGUGAUAAAAGU", "bound/input enrichment [ratio]": 0.151}
{"Strand": "UACUUCCAGUGUUCCUCAUCAUGUUUCCAGCAAGUCCCUUUUUCUACGUUGCAGUUUGUUUAAUGUAUGUUAAUUUCACCUGGCUUCAUUCAUUUUCCUUUUUAAAAUUUGUCUUUUAAA", "bound/input enrichment [ratio]": 0.304}
{"Strand": "UUCACAUUUGGAAGUUUUUCUAAAGGACAACUGGGCAGACCAAUUUUGGAUGUGCCAUAUUGGAAUGCAAAGCCAGCUCCCAUGCCUAACAUUGGAUCAAAAUAUGGAAGAAAAGCUACU", "bound/input enrichment [ratio]": 0.162}
{"Strand": "AAUAAUUCUUUAAUGCUUGACAAAAUUAUUGGUGAAAAAAGGAGGCGAAUACAGAUCACAAUAUUGUCAUACCACUCCUCAAUUGGAGUAAGAAAAGAUGAACUGGUUCAUGGGUAUAUA", "bound/input enrichment [ratio]": 0.289}
{"Strand": "UAUUAACUGGGUGUUCUGACCACGAGGGACUCCUGGCAUCCACGAUUGUUCUGAUUCGCCAAUAGCCUUCUCUUGUCUACAGCUGCCAAUGCCAAGAGUCCCUAGCCUGCCUUCCUCACC", "bound/input enrichment [ratio]": 0.309}
{"data": "Sample 2", "target": "Sal-like protein 4, full length isoform B (SALL4, Homo sapiens, UniProt Q9UJQ4-2, residues 1-616)", "method": "universal PBM", "form": "double-stranded DNA, one strand shown", "medium": "in vitro", "concentration": "not given", "setting": "8-mer, flanks averaged, mean of replicates", "reading": "higher = stronger binding", "Target sequence (chain)": "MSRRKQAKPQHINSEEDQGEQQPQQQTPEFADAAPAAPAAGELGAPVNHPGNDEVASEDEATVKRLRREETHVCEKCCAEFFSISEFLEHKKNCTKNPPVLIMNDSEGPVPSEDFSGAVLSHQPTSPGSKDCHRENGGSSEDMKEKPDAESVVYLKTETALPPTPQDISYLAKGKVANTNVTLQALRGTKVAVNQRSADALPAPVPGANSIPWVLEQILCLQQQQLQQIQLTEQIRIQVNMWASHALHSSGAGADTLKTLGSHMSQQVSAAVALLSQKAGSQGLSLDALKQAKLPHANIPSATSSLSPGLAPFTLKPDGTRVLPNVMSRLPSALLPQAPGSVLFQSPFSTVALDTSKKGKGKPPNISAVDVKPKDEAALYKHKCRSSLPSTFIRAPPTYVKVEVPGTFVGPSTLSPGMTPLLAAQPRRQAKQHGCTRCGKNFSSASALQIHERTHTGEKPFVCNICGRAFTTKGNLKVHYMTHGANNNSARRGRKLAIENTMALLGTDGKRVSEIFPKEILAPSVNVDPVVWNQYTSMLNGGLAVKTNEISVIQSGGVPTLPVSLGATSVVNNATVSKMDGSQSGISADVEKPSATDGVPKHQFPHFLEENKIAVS"}
{"Strand": "AATATAGG", "E-score": 0.286}
{"Strand": "CCACATAG", "E-score": -0.202}
{"Strand": "ATTTAGGA", "E-score": 0.204}
{"Strand": "GTCATCAA", "E-score": 0.0164}
{"Strand": "ACATCCGT", "E-score": 0.0086}
{"Strand": "AGTGTAGC", "E-score": -0.114}
{"Strand": "CTCGATCA", "E-score": -0.138}
{"Strand": "AGAGGCAT", "E-score": -0.011}
{"Strand": "CACGTGAA", "E-score": 0.0764}
{"Strand": "AATTGGCT", "E-score": 0.171}
{"Strand": "ATACGTTG", "E-score": 0.126}
{"Strand": "AACTTTTC", "E-score": 0.0967}
{"Strand": "GATGTGCC", "E-score": -0.034}
{"Strand": "ACTGTAGA", "E-score": 0.105}
{"Strand": "GCTGCTCA", "E-score": -0.177}
{"Strand": "AGATGCAG", "E-score": -0.0221}
{"Strand": "CCGCTCGC", "E-score": -0.297}
{"Strand": "TTCTTCAA", "E-score": 0.126}
{"Strand": "CCCCACCA", "E-score": -0.224}
{"Strand": "GGAAGACA", "E-score": 0.112}
{"Strand": "AGGGTACT", "E-score": -0.112}
{"Strand": "GAATTCTC", "E-score": -0.0233}
{"Strand": "ACTATTGC", "E-score": 0.229}
{"Strand": "CATCAGTC", "E-score": -0.139}
{"Strand": "CGGAACCC", "E-score": -0.261}
{"data": "Sample 3", "target": "Prothrombin, mature alpha-thrombin (F2, Homo sapiens, UniProt P00734)", "method": "aptamer microarray, sandwich", "form": "DNA with 2'F-ANA", "medium": "in vitro", "concentration": "200 nM", "setting": "whole 15-mer aptamer, many near background", "added": "Cy3 exosite-II aptamer, 400 nM", "reading": "higher = stronger binding", "strand": "GGTTGGTGTGGTTGG"}
{"Modification": "2'F-ANA at 3 4 6 9 12 14", "mean fluorescence intensity": "308 a.u."}
{"Modification": "2'F-ANA at 1 2 4 6 9 11 12 14 15", "mean fluorescence intensity": "50.3 a.u."}
{"Modification": "2'F-ANA at 1 2 3 5 7 14", "mean fluorescence intensity": "47.5 a.u."}
{"Modification": "2'F-ANA at 1 3 4 5 6 8 10 11 13 15", "mean fluorescence intensity": "55.3 a.u."}
{"Modification": "2'F-ANA at 1 2 3 4 6 10 11 13", "mean fluorescence intensity": "51.2 a.u."}
{"Modification": "2'F-ANA at 1 2 4 5 6 13 14", "mean fluorescence intensity": "57.4 a.u."}
{"Modification": "2'F-ANA at 1 2 3 7 8 9 14 15", "mean fluorescence intensity": "81.8 a.u."}
{"Modification": "2'F-ANA at 1 3 5 6 7 10 11 12 13 14", "mean fluorescence intensity": "48.6 a.u."}
{"Modification": "2'F-ANA at 1 4 5 7 9 13 14 15", "mean fluorescence intensity": "75.5 a.u."}
{"Modification": "2'F-ANA at 1 2 7 8 9 10 11 13 14 15", "mean fluorescence intensity": "75.4 a.u."}
{"Modification": "2'F-ANA at 1 2 3 4 5 6 9 10 11 13 14", "mean fluorescence intensity": "49.9 a.u."}
{"Modification": "2'F-ANA at 1 4 6 8 9 11 14 15", "mean fluorescence intensity": "55.7 a.u."}
{"Modification": "2'F-ANA at 2 3 4 5 10 14", "mean fluorescence intensity": "82.4 a.u."}
{"Modification": "2'F-ANA at 1 2 3 4 6 7 8 9 10 12 13 14 15", "mean fluorescence intensity": "57.1 a.u."}
{"Modification": "2'F-ANA at 1 4 5 6 8 13 14 15", "mean fluorescence intensity": "75.3 a.u."}
{"Modification": "2'F-ANA at 3 6 7 8 11 13 14 15", "mean fluorescence intensity": "612 a.u."}
{"Modification": "2'F-ANA at 4 5 7 9 10 12 15", "mean fluorescence intensity": "57.8 a.u."}
{"Modification": "2'F-ANA at 1 2 3 8 10", "mean fluorescence intensity": "67.6 a.u."}
{"Modification": "2'F-ANA at 1 3 6 7 8 11 15", "mean fluorescence intensity": "264 a.u."}
{"Modification": "2'F-ANA at 2 3 4 5 7 8 9 11 12 13 14 15", "mean fluorescence intensity": "54.2 a.u."}
{"Modification": "2'F-ANA at 4 7 8 9 12 14", "mean fluorescence intensity": "140 a.u."}
{"data": "Sample 4", "target": "Histone acetyltransferase KAT6A, winged helix 1, GST fusion (KAT6A, Homo sapiens, UniProt Q92794, residues 1-85)", "method": "protein binding microarray", "form": "double-stranded DNA, one strand shown", "medium": "in vitro", "concentration": "not given", "setting": "8-mer, flanks averaged, mean of 2 arrays, mostly near background", "baseline": "not given", "reading": "higher = stronger binding", "Construct (chain)": "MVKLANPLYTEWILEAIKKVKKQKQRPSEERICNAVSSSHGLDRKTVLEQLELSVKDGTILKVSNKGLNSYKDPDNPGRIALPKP"}
{"Strand": "TAGAGCTA", "E-score": -0.15}
{"Strand": "CCGAACAA", "E-score": -0.0049}
{"Strand": "TAGTCCAA", "E-score": -0.082}
{"Strand": "CCGCGACC", "E-score": 0.339}
{"Strand": "ATCAAGAG", "E-score": -0.135}
{"Strand": "AGGAGCCC", "E-score": 0.0959}
{"Strand": "TCGGATAA", "E-score": 0.0254}
{"Strand": "ACTGCTAC", "E-score": -0.229}
{"Strand": "GTTGGGGA", "E-score": -0.201}
{"Strand": "CACCCATA", "E-score": -0.0547}
{"Strand": "GTACCGCA", "E-score": 0.326}
{"Strand": "ATGGATAG", "E-score": -0.0847}
{"Strand": "CTATAGAG", "E-score": -0.0867}
{"Strand": "CTATCCGC", "E-score": 0.339}
{"Strand": "GCGTGAAA", "E-score": 0.0414}
{"Strand": "ATGTTTAA", "E-score": -0.161}
{"Strand": "CATGAGGA", "E-score": -0.0837}
{"Strand": "GCCAACCC", "E-score": 0.0826}
{"Strand": "CTTTCCAA", "E-score": -0.169}
{"Strand": "CGTCGACG", "E-score": 0.289}
{"Strand": "GTAGAGTA", "E-score": -0.07}
{"Strand": "AAGGGGCG", "E-score": 0.127}
{"Strand": "GTTAGAGA", "E-score": -0.128}
{"Strand": "CTGGTCAA", "E-score": -0.165}
{"Strand": "CGTGTGAA", "E-score": -0.126}
{"note": "For quick reference, copied from above (sample 2):"}
{"Strand": "TTCTTCAA", "E-score": 0.126}
{"Strand": "CCCCACCA", "E-score": -0.224}
{"Strand": "GGAAGACA", "E-score": 0.112}
{"Strand": "AGGGTACT", "E-score": -0.112}
{"Strand": "GAATTCTC", "E-score": -0.0233}
{"Strand": "ACTATTGC", "E-score": 0.229}
